Literature values that unrelated publications cite.
Lines come from different studies, so protocols differ. ± gives the spread as reported.

The chains behind the UniProt entries cited, without tags or fusion partners.
UniProt P22303, whole entry, looked up: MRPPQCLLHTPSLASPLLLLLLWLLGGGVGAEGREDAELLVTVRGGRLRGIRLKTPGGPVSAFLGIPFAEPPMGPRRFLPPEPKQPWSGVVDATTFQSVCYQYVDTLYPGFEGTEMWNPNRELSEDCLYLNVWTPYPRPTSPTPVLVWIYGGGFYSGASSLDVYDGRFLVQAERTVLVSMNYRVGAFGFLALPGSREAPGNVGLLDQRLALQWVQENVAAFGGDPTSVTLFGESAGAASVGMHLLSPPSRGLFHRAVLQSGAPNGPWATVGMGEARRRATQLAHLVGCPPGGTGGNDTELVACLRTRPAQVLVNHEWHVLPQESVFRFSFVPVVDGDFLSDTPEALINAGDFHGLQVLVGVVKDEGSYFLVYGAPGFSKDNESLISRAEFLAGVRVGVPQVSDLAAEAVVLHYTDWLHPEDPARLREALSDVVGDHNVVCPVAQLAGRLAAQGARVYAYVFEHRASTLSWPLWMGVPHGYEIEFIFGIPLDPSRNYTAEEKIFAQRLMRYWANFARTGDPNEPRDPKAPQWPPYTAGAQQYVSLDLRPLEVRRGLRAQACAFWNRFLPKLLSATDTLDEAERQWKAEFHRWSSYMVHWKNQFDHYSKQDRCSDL

Structure (SMILES) = C=C(C)[C@@H]1[C@H]2OC(=O)[C@@H]1[C@]1(O)C[C@H]3O[C@]34C(=O)O[C@H]2[C@]14C; tested on = GABA-A receptor; assay = binding; setting = 1 µM, with: [3H]EBOB; measurement = inhibition; value = 51%
Structure (SMILES) = Nc1nc2cc[nH]c2c(=O)[nH]1; tested on = ricin toxin A chain; assay = enzyme activity; measurement = IC50; value = 1400 µM
Structure (SMILES) = CCOP(=O)(OCC)Oc1ccc([N+](=O)[O-])cc1; tested on = AChE; system = chick cultured myoblasts; setting = concentration not given; how to read = relative to: untreated control; measurement = AChE activity; value = 2 fold
Structure (SMILES) = CN(C)C(=O)Oc1ccc[n+](C)c1; tested on = HeLa; assay = cytotoxicity, MTT; measurement = IC50; value = 380 µM
Structure (SMILES) = O=CN1CC[C@]23c4c5ccc(O)c4O[C@H]2[C@@H](O)C=C[C@H]3[C@H]1C5; tested on = mu opioid receptor; assay = binding; measurement = Ki; value = 0.42 µM
Structure (SMILES) = COP(=O)(OC)OC=C(Cl)Cl; tested on = AChE; system = mouse brain homogenate; setting = concentration not given, 2 h, spontaneous reactivation; how to read = relative to: original activity; measurement = AChE activity recovered; value = 50%
Structure (SMILES) = Cl[C@H]1[C@H](Cl)[C@@H](Cl)[C@@H](Cl)[C@H](Cl)[C@H]1Cl; tested on = GABA-A receptor; assay = binding; setting = 1 µM, with: [3H]EBOB; measurement = inhibition; value = 66%
Structure (SMILES) = COc1ccc(O)cc1; measurement = pKa; value = 10.2
Structure (SMILES) = Nc1nc(O)c2nc(CNc3ccc(C(=O)O)cc3)cnc2n1; tested on = ricin A chain; measurement = IC50; value = 600 µM
Structure (SMILES) = O=C(NCc1cccs1)[C@@H]1CN(C(=O)c2cccnc2)CCN1c1ccc(Cl)c(Cl)c1; tested on = human protease panel; setting = off-target; measurement = IC50; value = > 50 µM
Structure (SMILES) = CCOP(=S)(CC)Sc1ccccc1 (stereo not drawn); tested on = acetylcholinesterase; assay = inhibitor, qHTS; setting = concentration not given; measurement = activity; value = inactive
Structure (SMILES) = COC(=O)[C@@H]1C[C@H](OC(=O)c2ccccc2)C(=O)[C@H]2[C@@]1(C)CC[C@H]1C(=O)O[C@H](c3ccoc3)C[C@]21C; tested on = mu opioid receptor; assay = agonist, functional; measurement = EC50; value = 0.5 µM
Structure (SMILES) = CC(C)(C)[C@H](NC(=O)C(F)(F)F)C(=O)N1C[C@H]2[C@@H]([C@H]1C(=O)N[C@H](C#N)C[C@@H]1CCNC1=O)C2(C)C; tested on = SARS-CoV-2 main protease T304I; measurement = Ki; value = 0.0009 µM
Structure (SMILES) = O=C(NN1C(=O)[C@@H]2[C@@H]3C=C[C@@H]([C@H]4C[C@@H]34)[C@@H]2C1=O)c1ccc(C(F)(F)F)cc1; tested on = monkeypox virus; assay = viral replication; system = Vero E6; measurement = EC50; value = 0.006 ± 0.0002 µM
Structure (SMILES) = O=[As]c1ccccc1 (stereo not drawn); tested on = rat Y2 receptor; system = rat forebrain cell aggregates; setting = concentration not given; how to read = relative to: untreated; measurement = Y2 binding; value = ≤ 3 fold
Structure (SMILES) = CCOP(=O)(OCC)Oc1ccc([N+](=O)[O-])cc1; tested on = ACHE (Homo sapiens, UniProt P22303); assay = enzyme activity, inhibitor; measurement = ki; value = 15800 M⁻¹ s⁻¹
Structure (SMILES) = CNC(=O)ON=C(C)SC; measurement = half-life; value = 2 to 3 h
Structure (SMILES) = CN1CC[C@]23c4c5ccc(O)c4O[C@H]2[C@@H](O)C=C[C@H]3[C@H]1C5; system = rat; setting = subcutaneous; measurement = threshold dose for significant hypothermia; value = 30 mg/kg

For quick reference, copied from above:
Structure (SMILES) = Cl[C@H]1[C@H](Cl)[C@@H](Cl)[C@@H](Cl)[C@H](Cl)[C@H]1Cl; tested on = GABA-A receptor; assay = binding; setting = 1 µM, with: [3H]EBOB; measurement = inhibition; value = 66%
Structure (SMILES) = CC(C)(C)[C@H](NC(=O)C(F)(F)F)C(=O)N1C[C@H]2[C@@H]([C@H]1C(=O)N[C@H](C#N)C[C@@H]1CCNC1=O)C2(C)C; tested on = SARS-CoV-2 main protease T304I; measurement = Ki; value = 0.0009 µM
